Results pooled from the literature.
Lines come from different studies, so protocols differ.
Method: steady-state kinetics
B1: TcC (Trypanosoma cruzi, UniProt Q4DGA3); chain MPREYEFAEKILFTEEEIRTRIMEVAKRIADDYKGKGLRPYVNPLVLISVLKGSFMFTADLCRALSDFNVPVRMEFICVSSYGEGVTSSGQVRMLLDTRHSIEGHHVLIVEDIVDTALTLNYLYHMYFTRRPASLKTVVLLDKREGRRVPFSADYVVANIPNAFVIGYGLDYDDTYRELRDIVVLRPEVYAEREAARQKKQRAIGSADTDRDAKREFHSKY
B2: Comt (Mus musculus, UniProt O88587); chain MLLAAVSLGLLLLAFLLLLRHLGWGLVAIGWFEFVQQPVHNLLMGGTKEQRILRHVQQHAKPGDPQSVLEAIDTYCSEKEWAMNVGDAKGQIMDAVIREYRPSLVLELGAYCGYSAVRMARLLPPGARLLTMEINPDYAAITQQMLDFAGLQDKVSILIGASQDLIPQLKKKYDVDTLDMVFLDHWKDRYLPDTLLLEECGLLRKGTVLLADNVIVPGTPDFLAYVRGSSSFECTHYSSYLEYMKVVDGLEKAVYQGPGSSPVKS
B3: tmcA (Escherichia coli, UniProt P76562); chain MAELTALHTLTAQMKREGIRRLLVLSGEEGWCFEHTLKLRDALPGDWLWISPRPDAENHCSPSALQTLLGREFRHAVFDARHGFDAAAFAALSGTLKAGSWLVLLLPVWEEWENQPDADSLRWSDCPDPIATPHFVQHLKRVLTADNEAILWRQNQPFSLAHFTPRTDWYPATGAPQPEQQQLLKQLMTMPPGVAAVTAARGRGKSALAGQLISRIAGRAIVTAPAKASTDVLAQFAGEKFRFIAPDALLASDEQADWLVVDEAAAIPAPLLHQLVSRFPRTLLTTTVQGYEGTGRGFLLKFCARFPHLHRFELQQPIRWAQGCPLEKMVSEALVFDDENFTHTPQGNIVISAFEQTLWQSDPETPLKVYQLLSGAHYRTSPLDLRRMMDAPGQHFLQAAGENEIAGALWLVDEGGLSQQLSQAVWAGFRRPRGNLVAQSLAAHGNNPLAATLRGRRVSRIAVHPARQREGTGRQLIAGALQYTQDLDYLSVSFGYTGELWRFWQRCGFVLVRMGNHREASSGCYTAMALLPMSDAGKQLAEREHYRLRRDAQALAQWNGETLPVDPLNDAVLSDDDWLELAGFAFAHRPLLTSLGCLLRLLQTSELALPALRGRLQKNASDAQLCTTLKLSGRKMLLVRQREEAAQALFALNDVRTERLRDRITQWQLFH
B4: PduO F112H (Limosilactobacillus reuteri, UniProt Q50EJ2); chain MKIYTKNGDKGQTRIIGKQILYKNDPRVAAYGEVDELNSWVGYTKSLINSHTQVLSNELEEIQQLLFDCGHDLATPADDERHSFKFKQEQPTVWLEEKIDNYTQVVPAVKKHILPGGTQLASALHVARTITRRAERQIVQLMREEQINQDVLIFINRLSDYFFAAARYANYLEQQPDMLYRNSKDVFR
B5: enzyme (Bacillus pumilus, UniProt A8FFI9); chain EARSIAWSVDEFFKNREGTFVIQEVKEKSPWVYNKKRAKERFAPQSTFKVANALIGLQTGAVRDEYDIKYWDGVKREIDNWNRDHTLGSGMRDSVVWYYQAMARDIGEERMNHWVKAIHYGNKDISGGIDQFWLSSTLRISPIEQVRFLKQLYEETLPFDLKNMRTVKRMMVQEEEKHATLYGKTGSGSDIGWYVGFIKHEHKTYILATNIKGTGIEAKDITYRILKKYHLMEASV
B6: protein (Streptomyces sp. NRRL 30471, UniProt F2WUC8); chain MVRADYRTPEVNDVVRYRYGAAETALLKNRISEFGFTMAEVPGECAPQTEIERLGKALGLGEPYVAALYQRGDTRAHGALYTDVRSRAHNTHPGFGTTEGQTIHVDGLLEPIGTIRTTILFCVRPAVSGGRTVLFNSSAAFETLRHSDPAAAESLRDPGVLRRRSTLPNVDAGHTGPAFAYDNGLLITRYSEGPTVEWNAPPGRSAELERALNFLRAAAEDKRYSIALRLGAGEALIFRNDVISHGREAYRDDPAAPRHLIRTLYLESP
B7: MMP2 (Homo sapiens, UniProt P08253); chain YNFFPRKPKWDKNQITYRIIGYTPDLDPETVDDAFARAFQVWSDVTPLRFSRIHDGEADIMINFGRWEHGDGYPFDGKDGLLAHAFAPGTGVGGDSHFDDDELWTLGEGQVVRVKYGNADGEYCKFPFLFNGKEYNSCTDTGRSDGFLWCSTTYNFEKDGKYGFCPHEALFTMGGNAEGQPCKFPFRFQGTSYDSCTTEGRTDGYRWCGTTEDYDRDKKYGFCPETAMSTVGGNSEGAPCVFPFTFLGNKYESCTSAGRSDGKMWCATTANYDDDRKWGFCPDQGYSLFLVAAHEFGHAMGLEHSQDPGALMAPIYTYTKNFRLSQDDIKGIQELYGASPDIDLGTGPTPTLGPVTPEICKQDIVFDGIAQIRGEIFFFKDRFIWRTVTPRDKPMGPLLVATFWPELPEKIDAVYEAPQEEKAVFFAGNEYWIYSASTLERGYPKPLTSLGLPPDVQRVDAAFNWSKNKKTYIFAGDKFWRYNEVKKKMDPGFPKLIADAWNAIPDNLDAVVDLQGGGHSYFFKGAYYLKLENQSLKSVKFGSIKSDWLGC
B8: enzyme D382A (Arabidopsis thaliana, UniProt O82390); chain MNARALLCSSNIHSLYTSNRPPEKTSSSRSLRNLKPSPKSLRVWIYPRNRSSVFRVLVRSSDKSESSNSYYVEGDKVSGNNDVVSDSPSSIVLPWWEEFPKRWVIVLLCFSAFLLCNMDRVNMSIAILPMSAEYGWNPATVGLIQSSFFWGYLLTQIAGGIWADTVGGKRVLGFGVIWWSIATILTPVAAKLGLPYLLVVRAFMGVGEGVAMPAMNNILSKWVPVQERSRSLALVYSGMYLGSVTGLAFSPFLIHQFGWPSVFYSFGSLGTVWLTLWLTKAESSPLEDPTLLPEERKLIADNCASKEPVKSIPWRLILSKPPVWALISCHFCHNWGTFILLTWMPTYYHQVLKFNLMESGLLSVFPWMTMAISANAGGWIAATLVSRGFSVTNVRKIMQTIGFLGPAFFLTQLKHIDSPTMAVLCMACSQGTDAFSQSGLYSNHQDIAPRYSGVLLGLSNTAGVLAGVLGTAATGHILQHGSWDDVFTISVGLYLVGTVIWNLFSTGEKIID
B9: enzyme D254A (Thermococcus kodakarensis, UniProt Q5JID5); chain MLYVEILGNLPEMARDEVKAMLELGGGEIIGQDYLFLKVDAGEKAFPFLDRLGLAHEYGLLLVEADSVEELLQKAGEVEWPIKGAFKVDTETMANCRHDVLDLPRKLGAVIHAQGFRVNLSKPDTVVRVYCGERLYAGIRLRYFDPKDFEKRKAHHRPFFRPISLHPRVSRALVNLTKATREILDPFMGAGGILIEAGLLGLRVYGVDIRPEMVEGAETNLKHYGVRDYTLKLGDATRLEDLFPDKKFEAVATAPPYGTAATLAGRKRDELYRKALRSIYNVLEDGGRLAIAFPTDFNGKAEAEAVGFRTLGRYYQRVHKSLERYFYVFEK
Sequence of UniProt Q6PHW0 (whole entry, looked up): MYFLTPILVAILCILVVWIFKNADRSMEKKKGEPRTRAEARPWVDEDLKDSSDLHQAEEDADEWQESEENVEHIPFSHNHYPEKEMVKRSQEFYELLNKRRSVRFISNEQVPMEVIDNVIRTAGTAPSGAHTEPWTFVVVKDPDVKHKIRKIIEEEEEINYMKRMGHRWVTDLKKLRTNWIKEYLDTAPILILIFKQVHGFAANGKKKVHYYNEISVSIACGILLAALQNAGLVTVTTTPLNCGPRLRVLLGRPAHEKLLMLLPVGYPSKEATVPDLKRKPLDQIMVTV
Sequence of UniProt A6T923 (whole entry, looked up): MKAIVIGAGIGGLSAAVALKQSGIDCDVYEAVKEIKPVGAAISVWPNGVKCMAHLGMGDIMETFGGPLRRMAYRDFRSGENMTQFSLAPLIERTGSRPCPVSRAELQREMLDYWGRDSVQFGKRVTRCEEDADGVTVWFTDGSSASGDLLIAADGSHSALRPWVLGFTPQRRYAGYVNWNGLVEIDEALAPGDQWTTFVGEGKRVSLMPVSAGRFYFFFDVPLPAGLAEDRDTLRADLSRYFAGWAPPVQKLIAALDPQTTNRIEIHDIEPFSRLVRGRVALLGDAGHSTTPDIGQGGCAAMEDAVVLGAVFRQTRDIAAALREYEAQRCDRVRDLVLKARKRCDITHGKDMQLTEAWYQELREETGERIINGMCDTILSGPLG
Sequence of UniProt Q92519 (whole entry, looked up): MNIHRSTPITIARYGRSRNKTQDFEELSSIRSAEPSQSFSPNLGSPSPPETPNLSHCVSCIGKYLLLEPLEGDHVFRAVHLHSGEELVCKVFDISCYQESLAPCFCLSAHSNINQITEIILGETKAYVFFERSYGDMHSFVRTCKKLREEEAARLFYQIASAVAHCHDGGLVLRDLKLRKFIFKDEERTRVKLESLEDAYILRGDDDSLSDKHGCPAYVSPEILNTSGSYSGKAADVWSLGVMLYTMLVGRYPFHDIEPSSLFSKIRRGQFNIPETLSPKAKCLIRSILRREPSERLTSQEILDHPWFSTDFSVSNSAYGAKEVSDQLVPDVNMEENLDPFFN
Sequence of UniProt P31513 (whole entry, looked up): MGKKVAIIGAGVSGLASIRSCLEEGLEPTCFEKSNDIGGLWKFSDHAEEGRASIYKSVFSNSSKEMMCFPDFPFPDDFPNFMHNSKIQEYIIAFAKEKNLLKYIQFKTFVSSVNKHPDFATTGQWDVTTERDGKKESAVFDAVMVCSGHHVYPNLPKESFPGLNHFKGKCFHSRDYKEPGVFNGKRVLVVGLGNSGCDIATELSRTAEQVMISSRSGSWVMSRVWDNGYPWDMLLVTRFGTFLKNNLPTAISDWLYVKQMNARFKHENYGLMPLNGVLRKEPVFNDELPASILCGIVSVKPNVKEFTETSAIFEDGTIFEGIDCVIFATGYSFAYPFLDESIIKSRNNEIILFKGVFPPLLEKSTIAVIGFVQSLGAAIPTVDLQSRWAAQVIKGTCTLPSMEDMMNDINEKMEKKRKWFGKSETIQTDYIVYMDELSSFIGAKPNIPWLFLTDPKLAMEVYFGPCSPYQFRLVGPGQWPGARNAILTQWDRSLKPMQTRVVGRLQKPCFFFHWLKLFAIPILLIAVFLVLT
Sequence of UniProt P9WEW0 (whole entry, looked up): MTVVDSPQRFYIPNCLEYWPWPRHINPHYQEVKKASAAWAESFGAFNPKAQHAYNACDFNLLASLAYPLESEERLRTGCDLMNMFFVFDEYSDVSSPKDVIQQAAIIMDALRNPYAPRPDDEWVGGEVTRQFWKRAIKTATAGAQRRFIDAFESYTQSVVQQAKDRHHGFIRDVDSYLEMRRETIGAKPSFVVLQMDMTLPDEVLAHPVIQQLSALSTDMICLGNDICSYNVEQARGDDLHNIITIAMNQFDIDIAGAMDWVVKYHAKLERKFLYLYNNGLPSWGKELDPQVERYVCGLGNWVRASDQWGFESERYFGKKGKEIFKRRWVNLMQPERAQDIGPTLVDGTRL

B1 (TcC) — Km (Nc1nc2nc[nH]c2c(=O)[nH]1; pH 8.3, 37 °C, apparent, added: PRPP 1 mM, MgCl2 12 mM): 14 µM
Ptb (Listeria monocytogenes, UniProt Q8Y7B7) — Km (CCC(CC)C(=O)SCCNC(=O)CCNC(=O)[C@H](O)C(C)(C)COP(=O)(O)OP(=O)(O)OC[C@H]1O[C@@H](n2cnc3c(N)ncnc32)[C@H](O)[C@@H]1OP(=O)(O)O; pH 7.5, 25 °C, apparent): 43.8 µM
B2 (Comt) — Km (O=c1oc2c(O)c(O)ccc2cc1-c1nc2ccccc2s1; MLS9; pH 7.4, 37 °C): 0.63 µM
FMO3 (Homo sapiens, UniProt P31513) — Km (CN1CCC[C@H]1c1cccnc1; HEK293 microsomes; 37 °C, not purified, added: NADPH regenerating system): 700 µM
B3 (tmcA) — Km (Nc1nc2c(ncn2[C@@H]2O[C@H](COP(=O)(O)OP(=O)(O)OP(=O)(O)O)[C@@H](O)[C@H]2O)c(=O)[nH]1; pH 7.8): 117 µM
B4 (PduO F112H) — Km (Nc1ncnc2c1ncn2[C@@H]1O[C@H](COP(=O)(O)OP(=O)(O)OP(=O)(O)O)[C@@H](O)[C@H]1O; pH 8, 37 °C, anoxic, added: cob(I)alamin): 2.6 µM
B5 (enzyme) — Km (O=C(Cc1cccs1)N[C@@H]1C(=O)N2C(C(=O)O)=C(/C=C/c3ccc([N+](=O)[O-])cc3[N+](=O)[O-])CS[C@H]12; pH 7): 82 µM
B6 (protein) — Km (O=c1ccn([C@H]2C[C@H](O)[C@@H](COP(=O)(O)O)O2)c(=O)[nH]1; pH 7.5, 30 °C, added: αKG 2 mM, ascorbic acid 2 mM, FeCl2 0.4 mM): 6.3 µM
hpxO (Klebsiella pneumoniae, UniProt A6T923) — Km (NC(=O)C1=CN([C@@H]2O[C@H](COP(=O)(O)OP(=O)(O)OC[C@H]3O[C@@H](n4cnc5c(N)ncnc54)[C@H](O)[C@@H]3O)[C@@H](O)[C@H]2O)C=CC1; pH 8, 25 °C): 500 µM
B7 (MMP2) — Km (CC(=O)N[C@@H](CCC(N)=O)C(=O)N1CCC[C@H]1C(=O)N[C@@H](CCC(N)=O)C(=O)NCC(=O)N[C@@H](CC(C)C)C(=O)N[C@@H](C)C(=O)N[C@@H](CCCCN)C(N)=O): 2030 µM
IYD (Homo sapiens, UniProt Q6PHW0) — Km (Cc1cc(C[C@H](N)C(=O)O)cc(I)c1O; pH 7.4, 25 °C, added: sodium dithionite 0.5%): 50 µM
protein (Stereum hirsutum, UniProt P9WEW0) — Km (CC(C)=CCC/C(C)=C/CC/C(C)=C/CO[P@@](=O)(O)OP(=O)(O)O; pH 8, NaCl 200 mM, added: FPP 1–100 µM): 5.02 µM
alanine aminopeptidase (Neisseria meningitidis, UniProt Q9JYV4) — Km (NC(=O)Cc1cc(=O)oc2cc(NC(=O)[C@@H](N)CC(=O)OCc3ccccc3)ccc12; pH 7.5, 37 °C): 117 µM
TRIB2 (Homo sapiens, UniProt Q92519) — Km (Nc1ncnc2c1ncn2[C@@H]1O[C@H](COP(=O)(O)OP(=O)(O)OP(=O)(O)O)[C@@H](O)[C@H]1O; pH 7.4, 30 °C, NaCl 100 mM, no added metal): 660 µM
B8 (enzyme D382A) — Km (O=P(O)(O)O; pH 6.5, 25 °C, apparent, not purified): 57.2 µM
B9 (enzyme D254A) — Km (C[S+](CC[C@H](N)C(=O)O)C[C@H]1O[C@@H](n2cnc3c(N)ncnc32)[C@H](O)[C@@H]1O; pH 7.5, 50 °C, apparent): 26 µM
DXS (Babesia bovis, UniProt V5KVW2) — Km (CC(=O)C(=O)O; pH 7.5, 37 °C, added: MgCl2 10 mM, thiamin diphosphate 2 mM, D,L-GAP): 790 µM

Excerpt of the above:
B4 (PduO F112H) — Km (Nc1ncnc2c1ncn2[C@@H]1O[C@H](COP(=O)(O)OP(=O)(O)OP(=O)(O)O)[C@@H](O)[C@H]1O; pH 8, 37 °C, anoxic, added: cob(I)alamin): 2.6 µM
Ptb (Listeria monocytogenes, UniProt Q8Y7B7) — Km (CCC(CC)C(=O)SCCNC(=O)CCNC(=O)[C@H](O)C(C)(C)COP(=O)(O)OP(=O)(O)OC[C@H]1O[C@@H](n2cnc3c(N)ncnc32)[C@H](O)[C@@H]1OP(=O)(O)O; pH 7.5, 25 °C, apparent): 43.8 µM
